Results from different studies.
Organism: Staphylococcus aureus

| SMILES | test | test system | setting | MIC |
| --- | --- | --- | --- | --- |
| COc1cccc(OC)c1C(=O)N[C@@H]1C(=O)N2[C@@H]1SC(C)(C)[C@@H]2C(=O)O | microbial growth, broth dilution | 29213 |  | 4 µM |
| C#CCOc1ccc(CN[C@@]2(C)C[C@H](O[C@H]3[C@H](Oc4c5cc6cc4Oc4ccc(cc4Cl)[C@@H](O)[C@@H](NC(=O)[C@@H](CC(C)C)NC)C(=O)N[C@@H](CC(N)=O)C(=O)N[C@H]6C(=O)N[C@H]4C(=O)N[C@H](C(=O)N[C@H](C(=O)NCC(N)=O)c6cc(O)cc(O)c6-c6cc4ccc6O)[C@H](O)c4ccc(c(Cl)c4)O5)O[C@H](CO)[C@@H](O)[C@@H]3O)O[C@@H](C)[C@H]2O)cc1OC | broth microdilution | MRSA USA300, cation-adjusted Mueller-Hinton broth | 20 to 24 h, 37 °C, 0.002% polysorbate 80 | 0.5 µg/mL |
| CC[C@H]1OC(=O)[C@H](C)[C@@H](OC(=O)Cc2ccccc2Cl)[C@H](C)[C@@H](O[C@@H]2O[C@H](C)C[C@H](N(C)C)[C@H]2O)[C@](C)(OC)C[C@@H](C)C(=O)[C@H](C)[C@@H](O)[C@]1(C)O |  | DSM 20231 MSSA |  | 4 µg/mL |
| C[C@@H]1C(=O)O[C@@H](C)/C=C/C=C\[C@@H](C)[C@@H]2C=C[C@@H]3C[C@@]4(C)O[C@H]4[C@@H](C)[C@H]3[C@@H]2C(=O)C(Cl)(Cl)C1=O |  | MRSA clinical isolate | resistant, ERY, CLI, TET, OXA, SXT | 0.0125 µg/mL |
| CCCCCC[N+](C)(C)CCCCCCOc1cc(OCCCCCC[N+](C)(C)CCCCCC)cc(OCCCCCC[N+](C)(C)CCCCCC)c1.[Br-].[Br-].[Br-] |  | SH1000 MSSA |  | 0.5 µM |
| CNC(=O)c1cc(Oc2ccc(NC(=O)Nc3ccccc3)cc2)ccn1 | microbial growth | NCTC8325 |  | > 100 µM |
| CCCCCCCC(=O)Oc1c(C)c(OC)c2c(c1C)OC(=O)[C@@H](CCCCCC)[C@]2(O)/C=C/c1ccccc1 (racemic) | microbial growth, broth dilution | ATCC25923 |  | 5000 µg/mL |
| CCCCCCCCCC[N+](C)(C)CCCCOc1cc(OCCCC[N+](C)(C)CCCCCCCCCC)cc(OCCCC[N+](C)(C)CCCCCCCCCC)c1.[Br-].[Br-].[Br-] |  | CA-MRSA USA300-0114 |  | 0.5 µM |
| COc1cc(Cc2cnc(N)nc2N)cc(OC)c1OC.O=c1[nH]cc(F)c(=O)[nH]1 | broth microdilution |  | 24 h | 4 µg/mL |
| C#CCOc1ccc(CN[C@@]2(C)C[C@H](O[C@H]3[C@H](Oc4c5cc6cc4Oc4ccc(cc4Cl)[C@@H](O)[C@@H](NC(=O)[C@@H](CC(C)C)NC)C(=O)N[C@@H](CC(N)=O)C(=O)N[C@H]6C(=O)N[C@H]4C(=O)N[C@H](C(=O)N[C@H](C(=O)O)c6cc(O)cc(O)c6-c6cc4ccc6O)[C@H](O)c4ccc(c(Cl)c4)O5)O[C@H](CO)[C@@H](O)[C@@H]3O)O[C@@H](C)[C@H]2O)cc1OC | broth microdilution | MSSA ATCC 29213, cation-adjusted Mueller-Hinton broth | 20 to 24 h, 37 °C, 0.002% polysorbate 80 | 2 µg/mL |
| CCCCCCCC(=O)N[C@@H](CC(N)=O)C(=O)N[C@H]1CNC(=O)[C@H](c2ccc(O)c(Cl)c2)NC(=O)[C@@H](C)NC(=O)[C@H](CC(C)C)NC(=O)CNC(=O)[C@H](c2ccc(O)cc2)NC(=O)[C@@H]([C@H](C)O)NC(=O)[C@H](c2ccc(O)cc2)NC(=O)[C@@H](CCCN)NC(=O)[C@H](Cc2ccccc2)NC(=O)[C@H]([C@@H](C)O)NC(=O)[C@@H](c2ccc(O)cc2)NC(=O)[C@H](c2ccc(O)cc2)NC(=O)[C@@H]([C@H](C)O)NC(=O)[C@@H](CCCN)NC(=O)[C@@H](c2ccc(O)cc2)NC1=O | broth microdilution | MSSA ATCC 29213 |  | 2.2 µg/mL |
| COc1nc(C(=O)Nc2ccc(C(=O)O)c(O)c2OC)ccc1NC(=O)c1ccc(NC(=O)[C@H](Cc2c[nH]nn2)NC(=O)c2ccc(NC(=O)/C(C)=C/c3ccc(O)cc3)cc2)cc1 | broth microdilution | ciprofloxacin-resistant |  | 2 µg/mL |
| CC[C@H]1OC(=O)[C@H](C)[C@@H](O[C@H]2C[C@@](C)(OC)[C@@H](O)[C@H](C)O2)[C@H](C)[C@@H](O[C@@H]2O[C@H](C)C[C@H](N(C)C)[C@H]2O)[C@](C)(O)C[C@@H](C)C(=O)[C@H](C)[C@@H](O)[C@]1(C)O |  | DSM 20231 MSSA |  | 0.5 µg/mL |
| CCCCCCn1cc[n+](CCCCCCOc2cc(OCCCCCC[n+]3ccn(CCCCCC)c3)cc(OCCCCCC[n+]3ccn(CCCCCC)c3)c2)c1.[Br-].[Br-].[Br-] |  | HA-MRSA ATCC 33591 |  | 0.5 µM |
| CC[C@H]1OC(=O)[C@H](C)[C@@H](OC(=O)Cc2ccc(C(F)(F)F)cc2)[C@H](C)[C@@H](O[C@@H]2O[C@H](C)C[C@H](N(C)C)[C@H]2O)[C@](C)(OC)C[C@@H](C)C(=O)[C@H](C)[C@@H](O)[C@]1(C)O | microbial growth | BAA976 |  | 8 µg/mL |
| COc1ccc2cc3[n+](cc2c1OC)CCc1cc2c(cc1-3)OCO2.[Cl][Fe-]([Cl])([Cl])[Cl] |  |  | 24 h, 37 °C | 200 µM |
| CC[C@H]1OC(=O)[C@H](C)[C@@H](OC(=O)Cc2c(F)cc([N+](=O)[O-])cc2F)[C@H](C)[C@@H](O[C@@H]2O[C@H](C)C[C@H](N(C)C)[C@H]2O)[C@](C)(OC)C[C@@H](C)C(=O)[C@H](C)[C@@H](O)[C@]1(C)O | microbial growth | BAA976 |  | 0.5 µg/mL |

| SMILES | test | test system | setting | MIC |
| --- | --- | --- | --- | --- |
| CCCCCCCCn1cc[n+](CCCCCCCCOc2cc(OCCCCCCCC[n+]3ccn(CCCCCCCC)c3)cc(OCCCCCCCC[n+]3ccn(CCCCCCCC)c3)c2)c1.[Br-].[Br-].[Br-] |  | HA-MRSA ATCC 33591 |  | 2 µM |
| COc1cc(C(=O)O)ccc1NC(=O)c1ccc(NC(=O)c2ccc(NC(=O)[C@H](Cc3c[nH]nn3)NC(=O)c3ccc(NC(=O)/C(C)=C/c4ccc(O)cc4)cc3)cc2)c(OC)c1O | broth microdilution | ciprofloxacin-resistant |  | 4 µg/mL |
| CC[C@H]1OC(=O)[C@H](C)[C@@H](OC(=O)Cc2ccc3c(c2)OCO3)[C@H](C)[C@@H](O[C@@H]2O[C@H](C)C[C@H](N(C)C)[C@H]2O)[C@](C)(OC)C[C@@H](C)C(=O)[C@H](C)[C@@H](O)[C@]1(C)O | microbial growth | BAA976 |  | 0.5 µg/mL |
| CCCCCCCC(=O)Oc1c(C)c(OC)c2c(/C=C/c3ccccc3)c(CCCCCC)c(=O)oc2c1C | microbial growth, broth dilution | ATCC25923 |  | 5000 µg/mL |
| Oc1c(Br)cc(Br)c2nc3cc(Cl)ccc3nc12 |  | 147 MRSA clinical isolate |  | 0.1 µM |
| CN[C@H](CC(C)C)C(=O)N[C@H]1C(=O)N[C@@H](CC(N)=O)C(=O)N[C@H]2C(=O)N[C@H]3C(=O)N[C@H](C(=O)N[C@H](C(=O)O)c4cc(O)cc(O)c4-c4cc3ccc4O)[C@H](O)c3ccc(c(Cl)c3)Oc3cc2cc(c3O[C@@H]2O[C@H](CO)[C@@H](O)[C@H](O)[C@H]2O[C@H]2C[C@](C)(NCc3ccc(OCc4cn(CC(=O)N[C@H](C(=O)N[C@@H](CCN)C(=O)N[C@H]5CCNC(=O)[C@H]([C@@H](C)O)NC(=O)[C@H](CCN)NC(=O)[C@H](CCN)NC(=O)[C@H](CC(C)C)NC(=O)[C@@H](CC(C)C)NC(=O)[C@H](CCN)NC5=O)[C@@H](C)O)nn4)c(OC)c3)[C@H](O)[C@H](C)O2)Oc2ccc(cc2Cl)[C@H]1O | broth microdilution | MSSA ATCC 29213, cation-adjusted Mueller-Hinton broth | 20 to 24 h, 37 °C, 0.002% polysorbate 80 | 0.25 µg/mL |
| CCCC/C=C/C(=O)N[C@@H](Cc1cc(F)cc(F)c1)C(=O)N[C@H]1COC(=O)[C@@H]2CCCN2C(=O)[C@H](C)NC(=O)[C@@H]2C[C@@H](C)CCN2C(=O)[C@@H]2CCCN2C1=O | microbial growth, broth dilution |  |  | 0.39 µg/mL |
| CCN1CCC(CCNCc2cc3ccccc3nc2SCc2ccccc2)CC1 | microbial growth, broth dilution |  |  | 64 µg/mL |
| CCCCCC[N+](C)(C)CCCCCCCCOc1cc(OCCCCCCCC[N+](C)(C)CCCCCC)cc(OCCCCCCCC[N+](C)(C)CCCCCC)c1.[Br-].[Br-].[Br-] |  | HA-MRSA ATCC 33591 |  | 1 µM |
| CC[C@H]1OC(=O)[C@H](C)[C@@H](OC(=O)Cc2ccc(OC)cc2)[C@H](C)[C@@H](O[C@@H]2O[C@H](C)C[C@H](N(C)C)[C@H]2O)[C@](C)(OC)C[C@@H](C)C(=O)[C@H](C)[C@@H](O)[C@]1(C)O |  | ATCC 43300 MRSA |  | > 64 µg/mL |
| COc1c(NC(=O)c2ccc(NC(=O)c3ccc(NC(=O)[C@H](Cc4c[nH]nn4)NC(=O)c4ccc(NC(=O)/C(C)=C/c5ccc(O)cc5)cc4)cc3)c(OC)c2O)ccc(C(=O)O)c1O | broth microdilution | ciprofloxacin-resistant |  | 4 µg/mL |
| CCC(CC)c1cc(CCN2CCCN(S(=O)(=O)c3cccc4ccccc34)CC2)nc(-c2ccccn2)n1 | microbial growth, broth dilution | ATCC29213 |  | > 16 µg/mL |
| CCCCCCCCCCn1cc[n+](CCCCCCCCOc2cc(OCCCCCCCC[n+]3ccn(CCCCCCCCCC)c3)cc(OCCCCCCCC[n+]3ccn(CCCCCCCCCC)c3)c2)c1.[Br-].[Br-].[Br-] |  | HA-MRSA ATCC 33591 |  | 16 µM |
| CC[C@H]1OC(=O)[C@H](C)[C@@H](OC(=O)Cc2ccc(N(C)C)cc2)[C@H](C)[C@@H](O[C@@H]2O[C@H](C)C[C@H](N(C)C)[C@H]2O)[C@](C)(OC)C[C@@H](C)C(=O)[C@H](C)[C@@H](O)[C@]1(C)O |  | DSM 20231 MSSA |  | 32 µg/mL |
| C/C(=C\c1ccc(O)cc1)C(=O)Nc1ccc(C(=O)N[C@@H](Cc2c[nH]nn2)C(=O)Nc2ccc(C(=O)Nc3ccc(C(=O)Nc4ccc(C(=O)O)cc4)c(O)c3)cc2)cc1 | broth microdilution | ciprofloxacin-sensitive |  | 32 µg/mL |
| CCCCCCCCCCCC[N+](C)(C)CCCCCCCCCCOc1cc(OCCCCCCCCCC[N+](C)(C)CCCCCCCCCCCC)cc(OCCCCCCCCCC[N+](C)(C)CCCCCCCCCCCC)c1.[Br-].[Br-].[Br-] |  | SH1000 MSSA |  | 32 µM |

A few entries again:
| SMILES | test | test system | setting | MIC |
| --- | --- | --- | --- | --- |
| COc1ccc2cc3[n+](cc2c1OC)CCc1cc2c(cc1-3)OCO2.[Cl][Fe-]([Cl])([Cl])[Cl] |  |  | 24 h, 37 °C | 200 µM |
| C#CCOc1ccc(CN[C@@]2(C)C[C@H](O[C@H]3[C@H](Oc4c5cc6cc4Oc4ccc(cc4Cl)[C@@H](O)[C@@H](NC(=O)[C@@H](CC(C)C)NC)C(=O)N[C@@H](CC(N)=O)C(=O)N[C@H]6C(=O)N[C@H]4C(=O)N[C@H](C(=O)N[C@H](C(=O)NCC(N)=O)c6cc(O)cc(O)c6-c6cc4ccc6O)[C@H](O)c4ccc(c(Cl)c4)O5)O[C@H](CO)[C@@H](O)[C@@H]3O)O[C@@H](C)[C@H]2O)cc1OC | broth microdilution | MRSA USA300, cation-adjusted Mueller-Hinton broth | 20 to 24 h, 37 °C, 0.002% polysorbate 80 | 0.5 µg/mL |
| COc1cc(C(=O)O)ccc1NC(=O)c1ccc(NC(=O)c2ccc(NC(=O)[C@H](Cc3c[nH]nn3)NC(=O)c3ccc(NC(=O)/C(C)=C/c4ccc(O)cc4)cc3)cc2)c(OC)c1O | broth microdilution | ciprofloxacin-resistant |  | 4 µg/mL |
| CCCCCC[N+](C)(C)CCCCCCCCOc1cc(OCCCCCCCC[N+](C)(C)CCCCCC)cc(OCCCCCCCC[N+](C)(C)CCCCCC)c1.[Br-].[Br-].[Br-] |  | HA-MRSA ATCC 33591 |  | 1 µM |
| CC[C@H]1OC(=O)[C@H](C)[C@@H](OC(=O)Cc2ccc(C(F)(F)F)cc2)[C@H](C)[C@@H](O[C@@H]2O[C@H](C)C[C@H](N(C)C)[C@H]2O)[C@](C)(OC)C[C@@H](C)C(=O)[C@H](C)[C@@H](O)[C@]1(C)O | microbial growth | BAA976 |  | 8 µg/mL |
